Measured values from different studies.
Protocols differ between the studies behind these lines. Several values in a cell are separate wells, animals, samples, runs or records. ± gives the spread as reported. Where no end group is shown, it is not given here. The star is where a group is joined.
B1: MYH7 short S1 short S1 1-808 (Homo sapiens, UniProt P12883); Cy5 label on cysteines; sequence looked up; chain MGDSEMAVFGAAAPYLRKSEKERLEAQTRPFDLKKDVFVPDDKQEFVKAKIVSREGGKVTAETEYGKTVTVKEDQVMQQNPPKFDKIEDMAMLTFLHEPAVLYNLKDRYGSWMIYTYSGLFCVTVNPYKWLPVYTPEVVAAYRGKKRSEAPPHIFSISDNAYQYMLTDRENQSILITGESGAGKTVNTKRVIQYFAVIAAIGDRSKKDQSPGKGTLEDQIIQANPALEAFGNAKTVRNDNSSRFGKFIRIHFGATGKLASADIETYLLEKSRVIFQLKAERDYHIFYQILSNKKPELLDMLLITNNPYDYAFISQGETTVASIDDAEELMATDNAFDVLGFTSEEKNSMYKLTGAIMHFGNMKFKLKQREEQAEPDGTEEADKSAYLMGLNSADLLKGLCHPRVKVGNEYVTKGQNVQQVIYATGALAKAVYERMFNWMVTRINATLETKQPRQYFIGVLDIAGFEIFDFNSFEQLCINFTNEKLQQFFNHHMFVLEQEEYKKEGIEWTFIDFGMDLQACIDLIEKPMGIMSILEEECMFPKATDMTFKAKLFDNHLGKSANFQKPRNIKGKPEAHFSLIHYAGIVDYNIIGWLQKNKDPLNETVVGLYQKSSLKLLSTLFANYAGADAPIEKGKGKAKKGSSFQTVSALHRENLNKLMTNLRSTHPHFVRCIIPNETKSPGVMDNPLVMHQLRCNGVLEGIRICRKGFPNRILYGDFRQRYRILNPAAIPEGQFIDSRKGAEKLLSSLDIDHNQYKFGHTKVFFKAGLLGLLEEMRDERLSRIITRIQAQSRGVLARMEYKKLLERR
B2: GRIK5 amino terminal domain 20-406 (Rattus norvegicus, UniProt Q63273); N-linked glycans; chain VLSSLRMAAILDDQTVCGRGERLALALAREQINGIIEVPAKARVEVDIFELQRDSQYETTDTMCQILPKGVVSVLGPSSSPASASTVSHICGEKEIPHIKVGPEETPRLQYLRFASVSLYPSNEDVSLAVSRILKSFNYPSASLICAKAECLLRLEELVRGFLISKETLSVRMLDDSRDPTPLLKEIRDDKVSTIIIDANASISHLVLRKASELGMTSAFYKYILTTMDFPILHLDGIVEDSSNILGFSMFNTSHPFYPEFVRSLNMSWRENCEASTYPGPALSAALMFDAVHVVVSAVRELNRSQEIGVKPLACTSANIWPHGTSLMNYLRMVEYDGLTGRVEFNSKGQRTNYTLRILEKSRQGHREIGVWYSNRTLAMNATTLDI
B3: MIF4GD (Homo sapiens, UniProt A9UHW6); sequence looked up; chain MGEPSREEYKIQSFDAETQQLLKTALKDPGAVDLEKVANVIVDHSLQDCVFSKEAGRMCYAIIQAESKQAGQSVFRRGLLNRLQQEYQAREQLRARSLQGWVCYVTFICNIFDYLRVNNMPMMALVNPVYDCLFRLAQPDSLSKEEEVDCLVLQLHRVGEQLEKMNGQRMDELFVLIRDGFLLPTGLSSLAQLLLLEIIEFRAAGWKTTPAAHKYYYSEVSD
B4: TFAM 50-118 (Homo sapiens, UniProt Q00059-1); sequence looked up; chain PKKPVSSYLRFSKEQLPIFKAQNPDAKTTELIRRIAQRWRELPDSKKKIYQDAYRAEWQVYKEEISRFK
B5: RGS6 RGS homology domain 336-441 (Homo sapiens, UniProt P49758); sequence looked up; chain SFDEILKDQVGRDQFLRFLESEFSSENLRFWLAVQDLKKQPLQDVAKRVEEIWQEFLAPGAPSAINLDSHSYEITSQNVKDGGRYTFEDAQEHIYKLMKSDSYARF
B6: TJP1 PDZ3-SH3-GuK; chain SMKLVKFRKGDSVGLRLAGGNDVGIFVAGVLEDSPAAKEGLEEGDQILRVNNVDFTNIIREEAVLFLLDLPKGEEVTILAQKKKDVYRRIVESDVGDSFYIRTHFEYEKESPYGLSFNKGEVFRVVDTLYNGKLGSWLAIRIGKNHKEVERGIIPNKNRAEQLASVQYTLPKTAGGDRADFWRFRGLRSSKRNLRKSREDLSAQPVQTKFPAYERVVLREAGFLRPVTIFGPIADVAREKLAREEPDIYQIAKSEPRDAGTDQRSSGIIRLHTIKQIIDQDKHALLDVTPNAVDRLNYAQWYPIVVFLNPDSKQGVKTMRMRLCPESRKSARKLYERSHKLRKNNHHLFTTTINLNSMN
B7: merA 1-69 (Serratia marcescens, UniProt P08662); sequence looked up; chain MTHLKITGMTCDSCAAHVKEALEKVPGVQSAIVSYAKGAAQLALDPGTAPDALTAAVAGLGYKAMLADA
B8: ftsZ (Bacillus subtilis, UniProt P17865); sequence looked up; chain MLEFETNIDGLASIKVIGVGGGGNNAVNRMIENEVQGVEYIAVNTDAQALNLSKAEVKMQIGAKLTRGLGAGANPEVGKKAAEESKEQIEEALKGADMVFVTAGMGGGTGTGAAPVIAQIAKDLGALTVGVVTRPFTFEGRKRQLQAAGGISAMKEAVDTLIVIPNDRILEIVDKNTPMLEAFREADNVLRQGVQGISDLIATPGLINLDFADVKTIMSNKGSALMGIGIATGENRAAEAAKKAISSPLLEAAIDGAQGVLMNITGGTNLSLYEVQEAADIVASASDQDVNMIFGSVINENLKDEIVVTVIATGFIEQEKDVTKPQRPSLNQSIKTHNQSVPKREPKREEPQQQNTVSRHTSQPADDTLDIPTFLRNRNKRG
B9: Sas-4 606-901 (Drosophila melanogaster, UniProt Q9VI72); sequence looked up; chain RNIARLAPKVLPSATMSDILDENGRRTQSLDGTAGKPAKQREAQNRRQSSGSAQVRSRSRSLSRNKKTPYALDESYASSSSVESEEVQPPVTAPKAATPPPAANSSSDFKREITNADGSKDIWYPNGNLKKISADGMNLRMLYFNKDIKETNIREGTVKYYYAETNTWHTSYLDGLEILEFPNGQTEHRRKDGTVEIHFPNNSIKIVDPSDTEKLEEWRYADGTHLVQLRNGDKILNLPNGQKEIHTKLNKRREYPDGTVKLVYPDGSQETRYSNGRVRLKDKDGKLIMDTDYAKY
B10: CSF1 33-496 (Homo sapiens, UniProt P09603); chain EEVSEYCSHMIGSGHLQSLQRLIDSQMETSCQITFEFVDQEQLKDPVCYLKKAFLLVQDIMEDTMRFRDNTPNAIAIVQLQELSLRLKSCFTKDYEEHDKACVRTFYETPLQLLEKVKNVFNETKNLLDKDWNIFSKNCNNSFAECSSQDVVTKPDCNCLYPKAIPSSDPASVSPHQPLAPSMAPVAGLTWEDSEGTEGSSLLPGEQPLHTVDPGSAKQRPPRSTCQSFEPPETPVVKDSTIGGSPQPRPSVGAFNPGMEDILDSAMGTNWVPEEASGEASEIPVPQGTELSPSRPGGGSMQTEPARPSNFLSASSPLPASAKGQQPADVTGTALPRVGPVRPTGQDWNHTPQKTDHPSALLRDPPEPGSPRISSLRPQGLSNPSTLSAQPQLSRSHSSGSVLPLGELEGRRSTRDRRSPAEPEGGPASEGAARPLPRFNSVPLTDTGHERQSEGSFSPQLQES
B11: LEMD3 755-911 (Homo sapiens, UniProt Q9Y2U8); sequence looked up; chain DKILVIPSKVWQGQAFHLDRRNSPPNSLTPCLKIRNMFDPVMEIGDQWHLAIQEAILEKCSDNDGIVHIAVDKNSREGCVYVKCLSPEYAGKAFKALHGSWFDGKLVTVKYLRLDRYHHRFPQALTSNTPLKPSNKHMNSMSHLRLRTGLTNSQGSS

Molecule = B1 (MYH7 short S1 short S1 1-808); target or system = MYBPC3, PKA phosphorylated (Homo sapiens, UniProt Q14896); assay = MST; conditions = pH 7.5, 23 °C, apparent, with: ADP 500 µM; endpoint = Kd; value = 37 ± 2 µM
Molecule = B2; target or system = Grik2 amino terminal domain 32-420 F58A/G215N/M217T, N-linked glycans (Rattus norvegicus, UniProt P42260); assay = AUC; conditions = pH 7.5, 20 °C, NaCl 200 mM, sedimentation velocity, monomer-dimer model; endpoint = Kd; value = 0.109 µM
Molecule = {TAMRA}-TRTKIDWNKILS-NH2 (CAPZA1 residues 265-276; SMILES CC[C@H](C)[C@H](NC(=O)[C@H](CCCCN)NC(=O)[C@H](CC(N)=O)NC(=O)[C@H](Cc1c[nH]c2ccccc12)NC(=O)[C@H](CC(=O)O)NC(=O)[C@@H](NC(=O)[C@H](CCCCN)NC(=O)[C@@H](NC(=O)[C@H](CCCNC(=N)N)NC(=O)[C@@H](NC(=O)c1ccc(-c2c3ccc(=[N+](C)C)cc-3oc3cc(N(C)C)ccc23)c(C(=O)[O-])c1)[C@@H](C)O)[C@@H](C)O)[C@@H](C)CC)C(=O)N[C@@H](CC(C)C)C(=O)N[C@@H](CO)C(N)=O; N-terminal TAMRA; C-terminal amide; TAMRA = 5-carboxytetramethylrhodamine, CN(C)c1ccc2c(-c3ccc(C(=O)*)cc3C(=O)[O-])c3ccc(=[N+](C)C)cc-3oc2c1); target or system = S100b (Rattus norvegicus, UniProt P04631); assay = fluorescence polarisation; test system = peptide; conditions = 37 °C, with: CaCl2 10 mM; endpoint = Kd; value = 1.19 ± 0.65 µM
Molecule = B3 (MIF4GD); target or system = SLBP, phosphorylated, multiple sites (Homo sapiens, UniProt Q14493); assay = SPR; conditions = pH 7.4, 25 °C, NaCl 150 mM; endpoint = Kd; value = 3.75 ± 1.8 µM
Molecule = OppA (Lactococcus lactis); target or system = bradykinin mature, N-terminal sulforhodamine 101; assay = FP; endpoint = Kd; value = 45 µM
Molecule = ARTK(Me3)QTARKSTG (histone H3 2-13 (UniProt P68431); K4me3; Me3 = trimethyl-lysine; sequence looked up); target or system = DIDO1 266-325 (Homo sapiens, UniProt Q9BTC0); assay = intrinsic tryptophan fluorescence titration; test system = peptide; conditions = pH 6.0, 25 °C; endpoint = Kd; value = 7.3 µM
Molecule = B4 (TFAM 50-118); target or system = TP53 1-93, AlexaFluor 546 label (UniProt P04637); assay = fluorescence polarisation; conditions = pH 7.4, 37 °C, NaCl 150 mM; endpoint = Kd; value = 14 µM
Molecule = B5; target or system = Gnao1, AlexaFluor 532 label (Rattus norvegicus, UniProt P59215); assay = flow cytometry; conditions = with: GDP-AlF4-; endpoint = Kd; value = 0.478 µM
Molecule = EDGGSFWYGAMKAAYG (designed peptide); target or system = CIB1 (Homo sapiens, UniProt Q99828); assay = ITC; test system = peptide; conditions = 25 °C, with: CaCl2 0.1 mM; endpoint = Kd; value = 2.81 µM
Molecule = SKTCGKAKVTGRWK (TNNT2 275-288 R278C (Homo sapiens, UniProt P45379-6); sequence looked up); target or system = TPM1 (Oryctolagus cuniculus, UniProt P58772); assay = SPR; test system = peptide; conditions = pH 7.0, KCl 0.1 M; endpoint = Kd; value = 8.89 µM
Molecule = B6 (TJP1 PDZ3-SH3-GuK); target or system = OCLN 383-522 S408D, fluorescent label (Homo sapiens, UniProt Q16625); assay = MST; endpoint = Kd; value = 5.8 ± 0.2 µM
Molecule = B7 (merA 1-69); target or system = MerB 1-212, Hg(II) bound Cys96/Cys159 (Serratia marcescens, UniProt P77072); assay = stopped-flow fluorescence; endpoint = Kd; value = 195 µM
Molecule = LDRQEEEEALQDQKRREEELGRIMVNAFDDLLDEENTIDS (asl 21-60 (Drosophila melanogaster, UniProt Q9VNE4); sequence looked up); target or system = Plk4 cryptic polo box 383-601, lysine methylated, RED-NHS label (Drosophila, UniProt O97143); assay = MST; endpoint = Kd; value = 0.88 µM
Molecule = B8 (ftsZ); target or system = UgtP (Bacillus subtilis, UniProt P54166); assay = BLI; conditions = pH 8.0, 30 °C, NaCl 100 mM, with UDP-glc, with: UDP-glc; endpoint = Kd; value = 0.072 µM
Molecule = B9 (Sas-4 606-901); target or system = ana2, Plk4 phosphorylated (Drosophila melanogaster, UniProt Q9XZ31); assay = BLI; conditions = approximate, prephosphorylated, single experiment; endpoint = Kd; value = 0.007 µM
Molecule = B10 (CSF1 33-496); target or system = CSF1R Fc fusion D1-D5 M149K (Homo sapiens, UniProt P07333); assay = SPR; conditions = pH 7.4, NaCl 0.15 M; endpoint = Kd; value = 0.0021 µM
Molecule = UGT1A9 (Homo sapiens, UniProt O60656); target or system = O=C(c1ccc(OCCN2CCCCC2)cc1)c1c(-c2ccc(O)cc2)sc2cc(O)ccc12; assay = steady-state kinetics; conditions = pH 7.4, 37 °C; endpoint = Vmax/Km; value = 20 µL/min/mg
Molecule = Ac-ESIQGSLMDVGMRVRKSIST-NH2 (spd1 27-46 (Schizosaccharomyces pombe, UniProt Q10585); N-acetyl, C-amide); target or system = pcn1 1-260 (Schizosaccharomyces pombe, UniProt Q03392); assay = NMR titration; test system = peptide; conditions = pH 7.4, NaCl 100 mM; endpoint = Kd; value = 4000 ± 700 µM
Molecule = B11 (LEMD3 755-911); target or system = SMAD2 186-467 S-to-E phosphomimetic (Homo sapiens, UniProt Q15796); assay = ITC; conditions = 20 °C; endpoint = Kd; value = 1.4 µM and 1.27 µM

Some of these lines once more:
Molecule = B10 (CSF1 33-496); target or system = CSF1R Fc fusion D1-D5 M149K (Homo sapiens, UniProt P07333); assay = SPR; conditions = pH 7.4, NaCl 0.15 M; endpoint = Kd; value = 0.0021 µM
